Experimental data of several laboratories.
Parts stem from different laboratories: compare values within a part only. Positions count from the first letter of the parent shown.

Study 1
Target: UBE2W UBC core domain (UniProt Q96B02)
Method: yeast two-hybrid
Matrix: yeast
Setting: mostly zero background
Reference: not given
Reading: higher = stronger interaction
Endpoint: lacZ reporter activity
B1: SYTL4 RING domain (UniProt Q96C24); chain RGSQHYSDRTCARCQESLGRLSPKTNTCRGCNHLVCRDCRIQESNGTWRCKVCAKEIELKKAT
B2: RBCK1 RING domain (UniProt Q9BYM8); chain SLVLNTEPAECPVCYSVLAPGEAVVLRECLHTFCRECLQGTIRNSQEAEVSCPFIDNTYSCSGKLLEREIK
B3: UBOX5 RING domain (UniProt O94941); chain EQPGSILGPECASCKRVFSPYFKKEPVYQLPCGHLLCRPCLGEKQRSLPMTCTACQRPVASQDVLR
B4: MDM4 RING domain (UniProt O15151); chain MEDCQNLLKPCSLCEKRPRDGNIIHGRTGHLVTCFHCARRLKKAGASCPICKKEIQLVIKVF
B5: DZIP3 RING domain (UniProt Q86Y13); chain PDEEEEEEEPCVICHENLSPENLSVLPCAHKFHAQCIRPWLMQQGTCPTCRLHVLLPEEFP
B6: RNF19A RING domain (UniProt Q9NV58); chain ISKQIGDFIECPLCLLRHSKDRFPDIMTCHHRSCVDCLRQYLRIEISESRVNISCPECTERFNPHDIR
B7: TRIM62 RING domain (UniProt Q9BVG3); chain MACSLKDELLCSICLSIYQDPVSLGCEHYFCRRCITEHWVRQEAQGARDCPECRRTFAEPALAP
Target sequence (chain): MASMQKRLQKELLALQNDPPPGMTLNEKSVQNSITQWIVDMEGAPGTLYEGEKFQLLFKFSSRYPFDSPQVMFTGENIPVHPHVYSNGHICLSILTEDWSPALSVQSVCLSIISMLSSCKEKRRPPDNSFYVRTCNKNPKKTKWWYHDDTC
B1 (SYTL4 RING domain): 0
YQNEVDDDLVCHICLQPLLQPLDTPCGHTFCYKCLRNFLQEKDFCPLDRKRLHFKLCKK (LNX2 RING domain (UniProt Q8N448)): 0
GSDDEEIPFKCFICRQSFQNPVVTKCRHYFCESCALQHFRTTPRCYVCDQQTNGVFNPA (RNF113A RING domain (UniProt O15541)): 0
B2 (RBCK1 RING domain): 0
KLRKLKEAMLCMVCCEEEINSTFCPCGHTVCCESCAAQLQSCPVCRSRVEHVQHVY (MYLIP RING domain (UniProt Q8WY64)): 0
PEDRESLKSACVVCLSSFKSCVFLECGHVCSCTECYRALPEPKKCPICRQAITRVIPLY (MUL1 RING domain (UniProt Q969V5)): 12400
GSRLQEINDVCAICYHEFTTSARITPCNHYFHALCLRKWLYIQDTCPMCHQKVYIEDDIK (RNF139 RING domain (UniProt Q8WU17)): 0
NLSELTPYILCSICKGYLIDATTITECLHTFCKSCIVRHFYYSNRCPKCNIVVHQTQPLY (PCGF6 RING domain (UniProt Q9BYE7)): 0
B3 (UBOX5 RING domain): 0
B4 (MDM4 RING domain): 0
B5 (DZIP3 RING domain): 0
B6 (RNF19A RING domain): 0
AVPSGLEENLCKICMDSPIDCVLLECGHMVTCTKCGKRMNECPICRQYVIRAVHVF (RFFL RING domain (UniProt Q8WZ73)): 14500
B7 (TRIM62 RING domain): 0
KETIKKTTKPCPRCHVPVEKNGGCMHMKCPQPQCRLEWCWNCGCEWNRVCMG (PRKN RING domain (UniProt O60260)): 0

Study 2
Target: HLA class I histocompatibility antigen, A alpha chain, allele A*80:01 (Homo sapiens, UniProt P04439)
Observed: peptide-MHC binding
Molecule type: peptide
Tested at: concentration not given
Endpoint: binding
SSLRYGNVL: inactive
FLRKNQRAL: inactive
CRTAFKPVL: inactive
ATPHSVWVF: inactive
SQLPPACPV: inactive
AMPKTIYEL: inactive
WMFRIRIIL: inactive
GRFQEALKK: inactive
SLFGAAVSL: inactive
FTWQHNYYL: inactive
NRDVSFQDL: inactive
RLGWRTLDF: inactive
YTDLTYQSF: inactive
KDGTLFYCY: inactive
RLKHIFLIF: inactive
FTGWRDPGL: inactive
YSTVRDLFL: inactive
HVIYFTAFT: inactive
EDFEIFYNL: inactive
YFEYIEENKY: inactive
KTVCVQATK: inactive
ISLWGSLLK: inactive
SQYDPKELL: inactive
YAQMWSLMY: inactive
WTLAKPDFV: inactive

Study 3
Target: Sal-like protein 4, full length isoform B (SALL4, Homo sapiens, UniProt Q9UJQ4-2, residues 1-616)
Method: universal PBM
Molecule type: double-stranded DNA, one strand shown
Matrix: in vitro
Tested at: not given
Setting: 8-mer, flanks averaged, mean of replicates
Reading: higher = stronger binding
Endpoint: E-score
TAAGTGAA: 0.0786
CACCGTTC: -0.0885
CAAGCCCA: -0.0939
AAGGTGTA: 0.0862
CGTGGAAG: -0.0881
CGCGAGAC: -0.0878
ACCATGGA: -0.166
ACCAGACT: -0.182

Study 4
Target: CCNB1, cyclin fold, Cln2 fusion (human)
Method: yeast growth competition, sequencing
Matrix: yeast
Setting: strong parent motif
Reference: not given
Reading: higher = stronger binding
Endpoint: normalised enrichment score
Starting sequence: viral docking peptide; KGVKRKLFAEDSS; partner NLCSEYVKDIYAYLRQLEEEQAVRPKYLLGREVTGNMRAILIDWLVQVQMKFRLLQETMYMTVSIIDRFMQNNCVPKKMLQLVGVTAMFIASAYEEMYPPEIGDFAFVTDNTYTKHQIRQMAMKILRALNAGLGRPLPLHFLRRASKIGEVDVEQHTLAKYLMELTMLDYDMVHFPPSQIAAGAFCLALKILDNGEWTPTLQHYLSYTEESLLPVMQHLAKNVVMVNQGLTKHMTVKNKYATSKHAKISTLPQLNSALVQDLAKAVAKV
R5K F8L: 0.346
S12T: 2.69
L7C: 0.481
L7R: 0.951
A9S: 2.14
L7A: -0.219
F8T: 0.364
K4Y: 1.16
K4E: 1.95
E10R: 0.776
A9H: 1.71
R5Q: 1.55
S13A: 2.22
R5H: 0.262
